Results gathered from unrelated publications.
Numbered parts are unrelated; each lists some results of a single study.

Series 1 — technique: protein-binding microarray; form: double-stranded DNA, one strand shown; medium: in vitro; tested at: 2200 nM top; notes: 60-bp whole probe; added: salmon DNA 0.4 mg/ml; reference: random background probes; reading: higher = stronger binding; all sequences stand within: GCCTAGCAC … GTCTTGATTCGCTTGACGCTGCTG
Target: Interferon regulatory factor 7, full length, phosphomimetic (IRF7, Homo sapiens, UniProt Q92985, residues 1-503, S471D/S472D/S475D/S476D/S477D/S483D/S484D/S487D)
Residues (chain): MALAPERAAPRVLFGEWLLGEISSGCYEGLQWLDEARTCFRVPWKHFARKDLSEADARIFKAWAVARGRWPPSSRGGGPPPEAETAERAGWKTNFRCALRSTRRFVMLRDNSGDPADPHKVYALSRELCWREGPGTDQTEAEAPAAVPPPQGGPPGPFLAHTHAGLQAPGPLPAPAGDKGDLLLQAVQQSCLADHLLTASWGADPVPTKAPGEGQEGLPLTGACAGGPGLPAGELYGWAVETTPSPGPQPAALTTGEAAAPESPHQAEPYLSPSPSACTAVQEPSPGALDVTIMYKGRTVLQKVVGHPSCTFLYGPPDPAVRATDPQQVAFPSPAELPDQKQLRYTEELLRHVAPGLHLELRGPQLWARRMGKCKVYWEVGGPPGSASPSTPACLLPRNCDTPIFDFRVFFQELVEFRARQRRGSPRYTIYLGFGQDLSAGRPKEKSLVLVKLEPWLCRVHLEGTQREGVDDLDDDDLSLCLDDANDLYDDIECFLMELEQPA
`TAAGGACTGGACTTTCGGTTAGTGCTA`: “fitted relative affinity” 4.98 z-score.
`GACGTACTGGACTTTCGGGACGTGCTA` — result for “fitted relative affinity”: 2.59 z-score.
`TTAGATATAAGACTGGATTAGTGCTAG` — result for “fitted relative affinity”: -0.746 z-score.
`TTAGGACTGGACTTTCCGTTAGTGCTA`: “fitted relative affinity” 1.46 z-score.
Under “fitted relative affinity”, `TTTGGTTTCCTTTCCCTTTAGTGCTAG` is recorded as 6.65 z-score.

Series 2 — technique: RNA Bind-n-Seq; form: RNA; medium: in vitro; tested at: 200 nM; notes: whole 134-nt RNA, ends assumed; added: 150 mM LiCl; reference: input library; reading: higher = stronger binding; each molecule: 7-deaza-guanosine replaces G
Target: Fragile X messenger ribonucleoprotein 1, C-terminal low-complexity region (Fmr1, Mus musculus, UniProt P35922)
`GGGAGUUCUACAGUCCGACGAUCCACAGACAACACGCACCCACACAGACACAGAGGGAAGGGGUUGGGAUGGGGACAGGGUGUACAGCAGGGCGGGGUAGGACCCCAGCCCCUUGGAAUUCUCGGGUGUCAAGG` has a log2 enrichment of 0.284.
`GGGAGUUCUACAGUCCGACGAUCACCAUGCAGGUGGGCAUCUUUGGGAACUGGGGCAAGGGGGGGAUAGGGAGGGGGGUAACACUUUGGGAACAGGUGGUCCCAGGUCGUUUCUGGAAUUCUCGGGUGUCAAGG` gave a log2 enrichment of 1.37.
The log2 enrichment of `GGGAGUUCUACAGUCCGACGAUCACCAUGCAGGUGGGCAUCUUUGGGAAGUGGGGCAAGGGGGGGAUAGGGAGGGGGGUAACACUUUGGUAACAGGUGGUCCCAGGUCGUUUCUGGAAUUCUCGGGUGUCAAGG` is reported as 1.16.
The log2 enrichment of `GGGAGUUCUACAGUCCGACGAUCAGUCCUGUGCUACACAUCGUAUGUACCGAAUCAAACCCCCAAACCCAAAUUUUUAAAAAAGUAUUAUGUUACGCCGUUCGGAUCUGCACUUGGAAUUCUCGGGUGUCAAGG` is reported as 1.13.

Series 3 — technique: protein binding microarray; form: double-stranded DNA, one strand shown; medium: in vitro; tested at: not given; reference: not given; reading: higher = stronger binding
Target: Histone acetyltransferase KAT6A, winged helix 2, GST fusion (KAT6A, Homo sapiens, UniProt Q92794, residues 85-181)
Notes: 8-mer, flanks averaged, mean of 2 arrays, mostly near background
Residues (chain): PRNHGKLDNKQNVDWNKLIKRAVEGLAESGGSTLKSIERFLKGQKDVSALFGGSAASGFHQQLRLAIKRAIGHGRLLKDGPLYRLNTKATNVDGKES
For `ACTAGGAA`, the E-score was -0.186.
For `AGGAAACC`, the E-score was 0.0711.
For `AGGAACTC`, the E-score was -0.16.
The E-score of `AACTACTG` is reported as -0.0291.
For `AGATCAGG`, the E-score was -0.0741.
With `AATAGATA` the E-score was -0.123.

Single results of other studies
`PhoQ, residues 284 288 289 292 302 303 ASTSDA` has a fold induction of 3.51 (PhoP, residues 12 14 15 18 19 FWNTL (Escherichia coli, UniProt P23836); Sort-seq, refers to: YFP reporter; E. coli; PhoQ-PhoP variant library, added: 10 µM Mg2+; reference: high Mg2+ state, higher = stronger signaling).
